# Results collected from several papers.
# A part holds a random share of what one study measured.
# Chain of UniProt P42336 (whole entry, unmodified, looked up): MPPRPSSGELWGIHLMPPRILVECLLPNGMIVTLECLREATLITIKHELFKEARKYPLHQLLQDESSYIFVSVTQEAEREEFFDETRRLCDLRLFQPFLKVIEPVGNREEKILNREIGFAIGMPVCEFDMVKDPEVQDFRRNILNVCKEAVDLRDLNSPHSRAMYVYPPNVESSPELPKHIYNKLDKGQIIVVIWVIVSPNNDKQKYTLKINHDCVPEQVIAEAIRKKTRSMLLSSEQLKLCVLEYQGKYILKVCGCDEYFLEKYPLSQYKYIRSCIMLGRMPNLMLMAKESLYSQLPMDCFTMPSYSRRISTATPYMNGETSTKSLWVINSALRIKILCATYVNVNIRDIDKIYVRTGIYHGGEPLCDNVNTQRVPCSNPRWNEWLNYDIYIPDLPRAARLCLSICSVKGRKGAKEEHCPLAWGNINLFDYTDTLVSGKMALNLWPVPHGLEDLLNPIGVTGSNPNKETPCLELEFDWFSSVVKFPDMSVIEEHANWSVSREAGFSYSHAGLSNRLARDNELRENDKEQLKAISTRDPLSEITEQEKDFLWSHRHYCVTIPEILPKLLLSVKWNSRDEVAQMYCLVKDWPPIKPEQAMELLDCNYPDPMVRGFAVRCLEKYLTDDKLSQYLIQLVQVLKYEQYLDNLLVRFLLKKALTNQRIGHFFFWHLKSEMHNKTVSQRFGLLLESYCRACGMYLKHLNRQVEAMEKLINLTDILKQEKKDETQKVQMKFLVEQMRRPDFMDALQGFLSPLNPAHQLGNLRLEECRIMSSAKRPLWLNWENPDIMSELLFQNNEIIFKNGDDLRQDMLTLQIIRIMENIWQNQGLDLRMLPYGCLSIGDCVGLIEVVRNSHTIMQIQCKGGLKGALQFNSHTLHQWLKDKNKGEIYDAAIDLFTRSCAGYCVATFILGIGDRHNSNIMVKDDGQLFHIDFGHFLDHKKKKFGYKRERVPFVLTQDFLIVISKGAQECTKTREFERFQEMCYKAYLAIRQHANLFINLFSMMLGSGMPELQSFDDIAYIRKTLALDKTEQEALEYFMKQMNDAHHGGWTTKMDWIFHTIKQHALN
# Chain of UniProt P35626 (whole entry, looked up): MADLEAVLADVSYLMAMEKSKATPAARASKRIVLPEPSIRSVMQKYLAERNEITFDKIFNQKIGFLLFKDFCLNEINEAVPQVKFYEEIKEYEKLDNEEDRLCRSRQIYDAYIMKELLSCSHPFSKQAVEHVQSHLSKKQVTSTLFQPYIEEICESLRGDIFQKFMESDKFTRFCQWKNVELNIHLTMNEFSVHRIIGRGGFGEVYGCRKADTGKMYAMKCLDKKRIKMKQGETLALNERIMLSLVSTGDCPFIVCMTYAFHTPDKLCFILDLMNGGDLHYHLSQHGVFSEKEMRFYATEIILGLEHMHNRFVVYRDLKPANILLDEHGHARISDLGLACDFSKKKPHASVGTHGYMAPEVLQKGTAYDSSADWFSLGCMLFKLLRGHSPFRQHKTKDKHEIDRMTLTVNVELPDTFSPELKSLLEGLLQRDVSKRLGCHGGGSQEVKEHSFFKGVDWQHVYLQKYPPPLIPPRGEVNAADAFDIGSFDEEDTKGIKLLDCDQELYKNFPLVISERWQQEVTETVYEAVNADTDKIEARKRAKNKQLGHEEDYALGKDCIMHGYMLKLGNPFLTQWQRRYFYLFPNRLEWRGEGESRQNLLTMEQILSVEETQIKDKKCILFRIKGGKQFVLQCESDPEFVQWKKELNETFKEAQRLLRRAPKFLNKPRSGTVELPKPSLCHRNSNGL
# Chain of UniProt Q8IY84 (whole entry, looked up): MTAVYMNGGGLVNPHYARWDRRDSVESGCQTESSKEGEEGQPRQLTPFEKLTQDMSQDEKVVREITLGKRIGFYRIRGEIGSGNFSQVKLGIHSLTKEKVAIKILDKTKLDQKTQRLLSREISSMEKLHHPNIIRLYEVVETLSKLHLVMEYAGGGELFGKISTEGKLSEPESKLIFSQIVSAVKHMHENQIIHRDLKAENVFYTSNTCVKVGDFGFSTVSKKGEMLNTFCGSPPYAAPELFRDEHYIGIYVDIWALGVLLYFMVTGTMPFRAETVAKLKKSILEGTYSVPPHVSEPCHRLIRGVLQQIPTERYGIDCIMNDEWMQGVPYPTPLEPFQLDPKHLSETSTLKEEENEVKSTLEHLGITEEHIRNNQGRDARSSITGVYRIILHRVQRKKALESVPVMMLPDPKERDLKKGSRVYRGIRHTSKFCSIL
# Chain of UniProt Q05512 (whole entry, looked up): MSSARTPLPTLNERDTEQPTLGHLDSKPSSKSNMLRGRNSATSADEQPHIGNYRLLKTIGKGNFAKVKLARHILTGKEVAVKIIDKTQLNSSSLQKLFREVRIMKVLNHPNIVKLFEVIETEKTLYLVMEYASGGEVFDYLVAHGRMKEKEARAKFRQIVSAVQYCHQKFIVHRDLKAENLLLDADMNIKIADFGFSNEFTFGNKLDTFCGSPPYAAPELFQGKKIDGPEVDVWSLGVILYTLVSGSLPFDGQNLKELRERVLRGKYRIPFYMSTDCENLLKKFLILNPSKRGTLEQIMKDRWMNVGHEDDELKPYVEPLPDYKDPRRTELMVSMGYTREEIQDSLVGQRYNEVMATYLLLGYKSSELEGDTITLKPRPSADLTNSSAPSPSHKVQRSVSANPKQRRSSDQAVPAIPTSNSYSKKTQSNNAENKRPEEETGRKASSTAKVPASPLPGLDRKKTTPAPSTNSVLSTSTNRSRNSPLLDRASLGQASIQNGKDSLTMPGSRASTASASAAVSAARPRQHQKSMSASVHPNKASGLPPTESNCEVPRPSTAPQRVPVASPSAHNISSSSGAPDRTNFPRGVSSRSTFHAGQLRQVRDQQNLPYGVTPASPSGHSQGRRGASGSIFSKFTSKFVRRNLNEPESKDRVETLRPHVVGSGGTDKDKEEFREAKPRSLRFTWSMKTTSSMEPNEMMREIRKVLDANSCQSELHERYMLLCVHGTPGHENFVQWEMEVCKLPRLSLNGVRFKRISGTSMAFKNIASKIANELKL
# Chain of UniProt P06241 (whole entry, looked up): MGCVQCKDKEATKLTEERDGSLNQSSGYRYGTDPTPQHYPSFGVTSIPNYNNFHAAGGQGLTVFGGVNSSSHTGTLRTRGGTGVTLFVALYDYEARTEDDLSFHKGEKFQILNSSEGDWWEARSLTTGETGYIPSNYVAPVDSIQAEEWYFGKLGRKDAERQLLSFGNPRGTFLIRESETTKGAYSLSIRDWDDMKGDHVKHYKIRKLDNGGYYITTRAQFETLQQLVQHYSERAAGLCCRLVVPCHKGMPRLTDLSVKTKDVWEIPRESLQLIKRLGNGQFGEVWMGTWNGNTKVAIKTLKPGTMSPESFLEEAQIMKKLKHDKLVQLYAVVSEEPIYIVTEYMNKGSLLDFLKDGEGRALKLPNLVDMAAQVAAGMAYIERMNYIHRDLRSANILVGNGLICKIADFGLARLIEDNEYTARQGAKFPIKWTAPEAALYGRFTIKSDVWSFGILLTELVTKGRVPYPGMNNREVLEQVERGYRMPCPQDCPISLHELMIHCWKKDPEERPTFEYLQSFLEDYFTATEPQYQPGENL
# Chain of UniProt Q16816 (whole entry, looked up): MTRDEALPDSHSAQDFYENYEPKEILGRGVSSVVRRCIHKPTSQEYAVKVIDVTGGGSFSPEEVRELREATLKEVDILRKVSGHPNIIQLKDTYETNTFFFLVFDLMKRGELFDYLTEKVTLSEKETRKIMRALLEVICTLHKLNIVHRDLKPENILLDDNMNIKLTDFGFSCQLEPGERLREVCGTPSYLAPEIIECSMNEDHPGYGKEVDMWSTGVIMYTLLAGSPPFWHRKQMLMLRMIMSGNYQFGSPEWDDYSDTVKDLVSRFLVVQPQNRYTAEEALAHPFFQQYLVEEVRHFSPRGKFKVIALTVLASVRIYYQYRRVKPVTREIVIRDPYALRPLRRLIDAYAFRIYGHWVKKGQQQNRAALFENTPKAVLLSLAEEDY

# Sample 1 — Structure (SMILES): C=CCc1ccc(O)c(-c2cc(CC=C)ccc2O)c1; read-out: chloride current; method: whole-cell patch clamp
# Target: Anoctamin-1 (ANO1, Homo sapiens, UniProt Q5XXA6, del476-501)
# Chain of UniProt Q5XXA6 (whole entry, unmodified, looked up): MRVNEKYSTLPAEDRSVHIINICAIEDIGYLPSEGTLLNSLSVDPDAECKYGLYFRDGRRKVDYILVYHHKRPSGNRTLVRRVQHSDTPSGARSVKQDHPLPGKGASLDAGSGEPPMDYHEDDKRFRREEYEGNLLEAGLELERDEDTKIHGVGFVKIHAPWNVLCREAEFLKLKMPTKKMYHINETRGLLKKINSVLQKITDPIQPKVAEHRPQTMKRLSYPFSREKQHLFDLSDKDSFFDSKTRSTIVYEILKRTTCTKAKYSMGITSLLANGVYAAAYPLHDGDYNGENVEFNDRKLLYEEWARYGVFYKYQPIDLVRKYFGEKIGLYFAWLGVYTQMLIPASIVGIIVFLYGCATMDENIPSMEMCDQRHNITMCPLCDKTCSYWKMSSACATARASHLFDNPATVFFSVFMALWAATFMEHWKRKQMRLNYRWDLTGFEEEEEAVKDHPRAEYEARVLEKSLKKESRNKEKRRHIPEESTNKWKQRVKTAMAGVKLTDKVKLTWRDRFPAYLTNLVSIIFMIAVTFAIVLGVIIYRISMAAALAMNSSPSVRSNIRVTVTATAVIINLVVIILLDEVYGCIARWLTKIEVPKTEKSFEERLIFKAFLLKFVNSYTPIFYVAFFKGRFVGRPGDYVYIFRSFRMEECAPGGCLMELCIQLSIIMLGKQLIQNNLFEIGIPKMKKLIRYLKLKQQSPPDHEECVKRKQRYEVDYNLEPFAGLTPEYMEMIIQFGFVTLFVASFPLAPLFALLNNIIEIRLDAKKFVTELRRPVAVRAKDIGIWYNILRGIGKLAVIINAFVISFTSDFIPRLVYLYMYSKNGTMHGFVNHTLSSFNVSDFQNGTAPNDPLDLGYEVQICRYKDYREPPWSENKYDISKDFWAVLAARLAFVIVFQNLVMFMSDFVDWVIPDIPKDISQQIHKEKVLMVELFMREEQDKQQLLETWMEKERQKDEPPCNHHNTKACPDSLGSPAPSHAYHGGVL
setting,normalised current
"100 µM, -100 mV, 300 nM free Ca2+",-0.0317
"30 µM, 40 mV, 300 nM free Ca2+",0.073
"30 µM, 20 mV, 300 nM free Ca2+",0.0257
"30 µM, 100 mV, 300 nM free Ca2+",0.501
"3 µM, -20 mV, 300 nM free Ca2+",-0.0458
"1 µM, 0 mV, 300 nM free Ca2+",-0.000284
"3 µM, 80 mV, 300 nM free Ca2+",0.609
"100 µM, -20 mV, 300 nM free Ca2+, together with: honokiol and magnolol 3 µM",-0.0047
"10 µM, 20 mV, 300 nM free Ca2+, together with: honokiol and magnolol 3 µM",0.0497
"30 µM, 0 mV, 300 nM free Ca2+",-0.000379
"100 µM, -20 mV, 300 nM free Ca2+",-0.0097
"30 µM, 40 mV, 300 nM free Ca2+, together with: honokiol and magnolol 3 µM",0.0474
"100 µM, -40 mV, 300 nM free Ca2+",-0.0161
"100 µM, 100 mV, 300 nM free Ca2+",0.286
"100 µM, 40 mV, 300 nM free Ca2+, together with: honokiol and magnolol 3 µM",0.021
"10 µM, -40 mV, 300 nM free Ca2+",-0.0529

# Sample 2
# Structure (SMILES): COc1cc(C(=O)N2CCC(N3CCN(C)CC3)CC2)ccc1Nc1ncc2c(n1)N(C)c1ccccc1C(=O)N2C
tested on,assay,system,setting,inhibition [%]
mouse NEK9,"probe labelling, KiNativ ATP probe",mouse brain lysate,"1 µM, activation loop LGDYGLAkK",11.1
"Serine/threonine-protein kinase MARK2 (Mark2, Mus musculus, UniProt Q05512)",KiNativ profiling,mouse brain lysate,"1 µM, LYS1 site, together with: ATP acyl phosphate probe",7.7
PI4KA (mouse),"probe labelling, KiNativ, refers to: SGTPMQSAAkAPYLAK peptide, ATP site",brain tissue lysate (mouse),"1 µM, together with: ATP acyl-phosphate probe",-8.7
human PBMC,"probe labeling, inhibitor, KiNativ profiling, refers to: DMkAANVLITR",cell lysate,"concentration not given, LYS2 site, together with: ATP acyl-phosphate probe",13.5
eEF2K (mouse),"probe labelling, inhibitor, KiNativ ActivX ATP probe",mouse brain lysate,"1 µM, ATP loop peptide YIkYNSNSGFVR",-9
mouse CaMK2β and CaMK2δ,"probe labelling, KiNativ ATP probe",mouse brain lysate,"0.1 µM, LYS1 site",-4
MST2 (mouse),KiNativ ATP probe,mouse brain tissue,"1 µM, probe site LYS1",-80.2
human PBMC,"probe labeling, inhibitor, KiNativ profiling, refers to: DTGHIYAMkILR",cell lysate,"concentration not given, LYS1 site, together with: ATP acyl-phosphate probe",0.3
AXL mouse,KiNativ profiling,mouse brain lysate,"1 µM, activation loop site, together with: ADP acyl phosphate probe",-3.5
CaMKK2 (mouse),"probe labelling, KiNativ, refers to: Lys1 site peptide",brain tissue lysate (mouse),"0.1 µM, together with: ADP acyl-phosphate probe",13.2
NDR1 (mouse),"probe labelling, KiNativ, refers to: DTGHVYAMkILR peptide, LYS1 site",brain tissue lysate (mouse),"0.1 µM, together with: ADP acyl-phosphate probe",3.6
CaMK2g (mouse),"probe labelling, KiNativ, refers to: Lys1 site peptide",brain tissue lysate (mouse),"0.1 µM, together with: ADP acyl-phosphate probe",-32.7
PI4KA human,KiNativ profiling,human PBMC lysate,"concentration not given, ATP probe, ATP site",10.2
human PBMC,"probe labeling, inhibitor, KiNativ profiling",cell lysate,"concentration not given, ATP site, together with: ADP acyl-phosphate probe 1 µM",0.1
PCTAIRE1 (human),"probe labelling, KiNativ ADP probe",human PBMC lysate,"concentration not given, LYS1 labelled site",-8.1

# Sample 3 — read-out: cell-free assay; method: competition with immobilised ligand; tested at: 1 µM
# Compound: COc1cc(-c2cn(C3CCc4c(F)cccc4N(CC(F)(F)F)C3=O)nn2)ccc1-n1cnc(C)c1 (stereo not shown)
target,remaining binding [%]
"MAP3K10 (Homo sapiens, UniProt Q02779)",100
"PRKAA2 (Homo sapiens, UniProt P54646)",100
"AXL (Homo sapiens, UniProt P30530)",98
"Tyrosine-protein kinase ABL1, non-phosphorylated (ABL1, Homo sapiens, UniProt P00519, Q252H)",95
"FGFR3 (Homo sapiens, UniProt P22607, G697C)",100
"NIM1K (Homo sapiens, UniProt Q8IY84)",78
"MTOR (Homo sapiens, UniProt P42345)",100
"GRK4 (Homo sapiens, UniProt P32298)",100
"GRK3 (Homo sapiens, UniProt P35626)",100
"FYN (Homo sapiens, UniProt P06241)",100
"PHKG1 (Homo sapiens, UniProt Q16816)",78
"RET (Homo sapiens, UniProt P07949, V804L)",100
"WNK2 (Homo sapiens, UniProt Q9Y3S1)",53
"PHKG2 (Homo sapiens, UniProt P15735)",100
"MAP3K2 (Homo sapiens, UniProt Q9Y2U5)",94
"PIK3CA (Homo sapiens, UniProt P42336, C420R)",75
"COQ8B (Homo sapiens, UniProt Q96D53)",77
"MAP2K3 (Homo sapiens, UniProt P46734)",100

# Sample 4 — species: human; matrix: microsomes or S9; tested at: 2 µM; time: 0.5 h
SMILES,remaining compound [%]
CN(C)c1ccc(-c2nc3n(c2NC(C)(C)CC(C)(C)C)CCNC3)cc1,19.7
COc1c2c(cc3c1OCO3)CCN(C)C(C(=O)c1ccc(Br)cc1)=C2,0
Cc1cc2c3c(c1)C1(NC(=O)c4ccccc4N1)C(=O)N3C1(CCCCCC1)CC2(C)C (stereo not shown),5.87
CCn1nc(C)c(CNC(=O)NCCCOC)c1C,> 99
CCc1ccc(/N=c2\ncc3c([nH]2)CC(c2ccc(OC)cc2)CC3=O)cc1 (stereo not shown),> 100
CC(C)c1nc(CN(C)Cc2cnc(N(C)C)nc2)cs1,12.2
CC1CCN(CCNS(=O)(=O)c2ccc(-c3ccc(=O)[nH]n3)s2)CC1,> 100
Cc1nnsc1C(=O)Nc1onc2c1CSC2,22.3
Cc1nn(C)c2ncnc(NCc3cc4ccccc4[nH]3)c12,67.1
O=C(NC1CCCCC1)c1cnn2c(=O)cc(-c3ccc(F)cc3F)[nH]c12,46.2
COCC1CCCN(c2nnc(-c3n[nH]c4c3CCCC4)n2C)CC1 (stereo not shown),74.1
CCCN(CC1CCCO1)C(=O)c1sc2ncn(C)c(=O)c2c1C (stereo not shown),92.4

# Some of these lines once more (sample 3):
target,remaining binding [%]
"NIM1K (Homo sapiens, UniProt Q8IY84)",78
"MAP3K2 (Homo sapiens, UniProt Q9Y2U5)",94
"GRK4 (Homo sapiens, UniProt P32298)",100
"AXL (Homo sapiens, UniProt P30530)",98
"MTOR (Homo sapiens, UniProt P42345)",100
"PIK3CA (Homo sapiens, UniProt P42336, C420R)",75
"PRKAA2 (Homo sapiens, UniProt P54646)",100
